Results collected from several papers.
Numbered parts are unrelated; each lists some results of a single study.

Set 1
Target: Ras GTPase-activating protein-binding protein 1, full length (G3BP1, Homo sapiens, UniProt Q13283)
Chain of UniProt Q13283 (whole entry, looked up): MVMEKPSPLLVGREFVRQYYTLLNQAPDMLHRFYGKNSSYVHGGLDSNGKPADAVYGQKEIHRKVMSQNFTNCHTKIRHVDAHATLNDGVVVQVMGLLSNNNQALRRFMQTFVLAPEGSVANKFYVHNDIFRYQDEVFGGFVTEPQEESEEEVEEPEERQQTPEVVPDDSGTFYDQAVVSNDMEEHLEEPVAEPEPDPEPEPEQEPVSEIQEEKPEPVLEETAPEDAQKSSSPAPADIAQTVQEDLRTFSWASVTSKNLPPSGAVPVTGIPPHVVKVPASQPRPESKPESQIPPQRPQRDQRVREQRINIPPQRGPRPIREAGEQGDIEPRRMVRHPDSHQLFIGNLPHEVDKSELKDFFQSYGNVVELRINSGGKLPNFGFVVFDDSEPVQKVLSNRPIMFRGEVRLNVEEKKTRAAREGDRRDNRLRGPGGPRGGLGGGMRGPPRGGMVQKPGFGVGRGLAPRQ
Technique: RNA Bind-n-Seq
Molecule type: RNA
Matrix: in vitro
Tested at: 200 nM
Notes: whole 134-nt RNA, ends assumed
Added: 150 mM LiCl
Baseline: input library
Direction: higher = stronger binding
Each molecule: 7-deaza-guanosine replaces G
All sequences stand within: GGGAGUUCUACAGUCCGACGAUC … UGGAAUUCUCGGGUGUCAAGG
`AAGUCCUGUGCUACACAUCGUAUGUACCGAAUCGGUUUGGAAAAAAAGGUUUUUGGAAAGUAUUAUGUUACGCCGUUCGGAUCUGCACUU` has a log2 enrichment of -2.51.
For `ACCAUGCAGGUGGGCAUCUUUGGGAAGUGAGGCAAGGGGGGGAUAGGGAGGGGGGUAACACUUUGGGAACAGGUGGUCCCAGGUCGUUUC`, the log2 enrichment was 0.228.
The log2 enrichment of `UUCCUCAAGUCCUGUGCUACACAUCGUAUGUACCGAAUCGGGAGGAGGAGGAAAGUAUUAUGUUACGCCGUUCGGAUCUGCACUUCCAGC` is reported as -1.26.
`AAGUCCUGUGCUACACAUCGUAUGUACCGAAUCGGGUUUUGGGUUUUGGGUUUUGGGAAAGUAUUAUGUUACGCCGUUCGGAUCUGCACU` has a log2 enrichment of 0.0688.
`UAACUUUAGAGGAGGAUCUGAUGGAUAUGGCAGUGGACGUGGAUUUGGGGAUGGCUAUAAUGGGUAUGGAGGAGGACCUGGACGUGGCAA` has a log2 enrichment of -0.16.
The log2 enrichment of `GUCCUGUGCUACACAUCGUAUGUACCGAAUCGGGGUUUUUGGUUUUUGGGUUUUUGGGGAAAGUAUUAUGUUACGCCGUUCGGAUCUGCA` is reported as -0.553.
`UGGACUUGCGGGUUCCCAUCUGGGACCAGGACAUACAGUUUCUCCCAGGAUCACAGAAGCUUGUCACCUGCACAGGGUACCACCAGGUAA` has a log2 enrichment of -0.417.

Set 2
Target: Sal-like protein 4, full length isoform A (SALL4, Homo sapiens, UniProt Q9UJQ4, residues 1-1053)
Chain of UniProt Q9UJQ4 (whole entry, looked up): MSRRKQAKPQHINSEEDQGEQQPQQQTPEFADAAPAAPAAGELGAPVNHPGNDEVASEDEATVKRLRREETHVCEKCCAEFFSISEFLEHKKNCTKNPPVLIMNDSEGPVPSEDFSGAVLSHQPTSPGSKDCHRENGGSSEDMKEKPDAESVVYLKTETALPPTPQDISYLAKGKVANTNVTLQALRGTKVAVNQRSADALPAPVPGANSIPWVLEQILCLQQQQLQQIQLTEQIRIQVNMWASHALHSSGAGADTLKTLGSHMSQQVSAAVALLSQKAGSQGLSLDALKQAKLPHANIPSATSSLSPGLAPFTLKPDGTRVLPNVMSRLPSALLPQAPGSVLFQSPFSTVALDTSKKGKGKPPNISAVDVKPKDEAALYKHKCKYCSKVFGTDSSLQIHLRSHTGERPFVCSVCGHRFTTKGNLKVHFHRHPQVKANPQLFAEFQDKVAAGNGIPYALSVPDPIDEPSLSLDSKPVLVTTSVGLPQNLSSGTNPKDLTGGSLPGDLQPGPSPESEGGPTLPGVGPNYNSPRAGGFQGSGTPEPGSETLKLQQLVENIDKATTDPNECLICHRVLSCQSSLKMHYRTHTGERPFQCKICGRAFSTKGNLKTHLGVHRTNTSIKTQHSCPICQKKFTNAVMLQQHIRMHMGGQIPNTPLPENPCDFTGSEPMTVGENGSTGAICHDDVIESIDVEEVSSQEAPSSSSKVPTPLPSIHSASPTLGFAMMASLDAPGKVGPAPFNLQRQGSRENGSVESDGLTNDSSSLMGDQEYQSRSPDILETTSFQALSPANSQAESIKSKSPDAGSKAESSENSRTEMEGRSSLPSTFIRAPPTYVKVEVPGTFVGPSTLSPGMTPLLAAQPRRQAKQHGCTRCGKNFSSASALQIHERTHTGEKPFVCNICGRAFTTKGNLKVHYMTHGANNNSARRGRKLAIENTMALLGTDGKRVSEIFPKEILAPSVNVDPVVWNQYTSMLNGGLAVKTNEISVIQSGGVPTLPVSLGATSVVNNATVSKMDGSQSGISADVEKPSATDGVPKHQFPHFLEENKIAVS
Technique: universal PBM
Molecule type: double-stranded DNA, one strand shown
Matrix: in vitro
Tested at: 600 nM
Notes: 8-mer, flanks averaged, mean of replicates
Direction: higher = stronger binding
For `ACGAGTAA`, the E-score was 0.182.
`TTAAGAAA` gave an E-score of 0.283.
`GGTGGTCA` gave an E-score of -0.16.
`GCGTGCAC` has an E-score of -0.175.
The E-score of `CGGCATGA` is reported as 0.0208.
For `CTCGGAAG`, the E-score was -0.181.
The E-score of `CGTAGCAG` is reported as -0.0809.

Set 3
Target: Interferon regulatory factor 5, full length, phosphomimetic (IRF5, Homo sapiens, UniProt Q13568-2, residues 1-514, K96S/S451D/S453D/S456D/S462D)
Technique: protein-binding microarray
Molecule type: double-stranded DNA, one strand shown
Matrix: in vitro
Tested at: 250 nM
Notes: 60-bp whole probe
Added: salmon DNA 0.4 mg/ml
Baseline: random background probes
Direction: higher = stronger binding
All sequences stand within: GCCTAGCAC … GTCTTGATTCGCTTGACGCTGCTG
With `TTAGATATCGGTACTGGATTAGTGCTA` the log fluorescence was 4.32 z-score.
`GACGGTTTCCGGTTTCGGGACGTGCTA` has a log fluorescence of 4.38 z-score.
With `TTGGATTTCGGGTATCGATTAGTGCTA` the log fluorescence was 7.15 z-score.
The log fluorescence of `GGGATTTTGTCCTCCCCTCCCGTGCTA` is reported as -0.493 z-score.
For `AATGTTTTGTTTTTCATTATGTGCTAG`, the log fluorescence was 2.62 z-score.
The log fluorescence of `GACAGTTTCGGGTATCGGGACGTGCTA` is reported as 9.95 z-score.
For `GACGGTATCGACTATCCGGACGTGCTA`, the log fluorescence was 2.82 z-score.

Further values, each from its own experiment
With `PhoQ, residues 284 288 289 292 302 303 TVTVVA` the fold induction was 10.5 (PhoP, residues 12 14 15 18 19 NQCAL (Escherichia coli, UniProt P23836); Sort-seq, measured: YFP reporter; E. coli; PhoQ-PhoP variant library, added: 10 µM Mg2+; baseline: high Mg2+ state, higher = stronger signaling).

A few entries again (set 1):
`AAGUCCUGUGCUACACAUCGUAUGUACCGAAUCGGUUUGGAAAAAAAGGUUUUUGGAAAGUAUUAUGUUACGCCGUUCGGAUCUGCACUU` has a log2 enrichment of -2.51.
For `ACCAUGCAGGUGGGCAUCUUUGGGAAGUGAGGCAAGGGGGGGAUAGGGAGGGGGGUAACACUUUGGGAACAGGUGGUCCCAGGUCGUUUC`, the log2 enrichment was 0.228.
